Assay results collected from several papers.
A part holds a random share of what one study measured. Positions count from the first letter of the parent shown.
Sequence of UniProt Q84WU6 (whole entry, looked up): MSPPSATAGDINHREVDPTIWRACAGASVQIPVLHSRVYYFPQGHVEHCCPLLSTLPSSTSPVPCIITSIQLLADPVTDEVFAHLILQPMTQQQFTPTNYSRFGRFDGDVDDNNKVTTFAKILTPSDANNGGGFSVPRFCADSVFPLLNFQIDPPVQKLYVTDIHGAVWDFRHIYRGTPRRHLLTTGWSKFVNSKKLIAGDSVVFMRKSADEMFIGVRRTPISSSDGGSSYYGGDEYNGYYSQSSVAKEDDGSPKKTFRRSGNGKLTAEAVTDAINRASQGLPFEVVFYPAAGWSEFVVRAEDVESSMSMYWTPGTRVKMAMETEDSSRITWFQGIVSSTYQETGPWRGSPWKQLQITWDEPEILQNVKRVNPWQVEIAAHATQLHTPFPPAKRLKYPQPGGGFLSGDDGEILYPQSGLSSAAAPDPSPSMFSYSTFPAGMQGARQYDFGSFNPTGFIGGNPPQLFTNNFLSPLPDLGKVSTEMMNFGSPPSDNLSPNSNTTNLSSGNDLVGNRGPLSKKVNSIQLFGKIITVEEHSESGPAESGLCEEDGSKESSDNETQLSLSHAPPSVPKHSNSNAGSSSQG

Block 1 — technique: protein-binding microarray; form: hairpin DNA; matrix: in vitro; tested at: not given; reference: not given; direction: higher = stronger binding; constant ends, left off below: GAGGCCA … TGGCCTCACACTC
Target: Protein C-ets-1, full length (ETS1, Homo sapiens, UniProt P14921, residues 1-441)
Setting: whole hairpin DNA, median over replicate spots
Residues (chain): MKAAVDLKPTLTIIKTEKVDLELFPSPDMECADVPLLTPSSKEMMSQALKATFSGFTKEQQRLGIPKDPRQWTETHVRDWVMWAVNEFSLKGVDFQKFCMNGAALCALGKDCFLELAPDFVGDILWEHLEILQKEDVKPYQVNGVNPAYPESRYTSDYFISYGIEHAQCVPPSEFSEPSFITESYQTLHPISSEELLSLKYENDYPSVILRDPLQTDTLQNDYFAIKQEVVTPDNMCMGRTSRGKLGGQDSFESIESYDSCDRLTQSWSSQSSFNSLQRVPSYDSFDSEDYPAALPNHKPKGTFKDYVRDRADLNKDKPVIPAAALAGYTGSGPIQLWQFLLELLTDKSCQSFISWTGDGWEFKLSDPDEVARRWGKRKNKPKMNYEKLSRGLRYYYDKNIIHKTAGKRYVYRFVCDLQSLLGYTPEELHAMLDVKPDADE
Sequence	median fluorescence
GTCGGGAGTTGCCTCCTGGCAACTCCCGAC (5mC at 32)	530 a.u.
GTCGAAAGTTGCCTCCTGGCAACTTTCGAC	562 a.u.
GCCGAAAGTTGCCTCCTGGCAACTTTCGGC	566 a.u.
GTCGGAAGCGGCCTCCTGGCCGCTTCCGAC (5mC at 28)	2200 a.u.
GCCGCGAGTTGCCTCCTGGCAACTCGCGGC (5mC at 32)	552 a.u.
GCCGGAAGTTGCCTCCTGGCAACTTCCGGC (5mC at 33)	4790 a.u.
GCCGGAAGCGGCCTCCTGGCCGCTTCCGGC (5mC at 16 28)	5660 a.u.
CGCGGAAGTTGCCTCCTGGCAACTTCCGCG (5mC at 8 36)	3110 a.u.

Block 2 — technique: RNA Bind-n-Seq; form: RNA; matrix: in vitro; tested at: not given; setting: RNA with constant flanks, ends assumed; reference: input RNA pool; direction: higher = stronger binding
Target: RING finger protein unkempt homolog, zinc fingers 1-6, GST-SBP tag (UNK, Homo sapiens, UniProt Q9C0B0, residues 30-357)
Constant ends, left off below: GGGAGUUCUACAGUCCGACGAUC … CAACAGAGGAUUGAGCAUCA
Construct (chain): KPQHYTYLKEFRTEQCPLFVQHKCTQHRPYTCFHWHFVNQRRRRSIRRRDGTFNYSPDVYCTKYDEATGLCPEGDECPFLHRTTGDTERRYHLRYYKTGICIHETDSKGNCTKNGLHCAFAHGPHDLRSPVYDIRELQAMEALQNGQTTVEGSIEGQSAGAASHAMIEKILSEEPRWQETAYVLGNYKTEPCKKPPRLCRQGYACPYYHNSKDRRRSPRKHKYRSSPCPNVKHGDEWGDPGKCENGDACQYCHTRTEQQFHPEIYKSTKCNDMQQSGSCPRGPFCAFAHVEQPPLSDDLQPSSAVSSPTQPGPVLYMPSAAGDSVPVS
Sequence	bound/input enrichment [ratio]
GUUUUUGGCUGCAAUUGCAUGAAAUCCCAAUGGUGUAGACCAGUGGCGAUGGAUCCCGGAGUUUACCAACUGAGACAUUUUUCAAUUUCUUUCUUGUCAUCCUUGCUGGGGACUGAAAAC	0.244
GAGGAGAGUCUCACUGUAGAAAGUACUGACUUGAACGAUGAAAGAACAGGGGAGAGUCUCACUGCCGAAAGUACUGACUUGAACGAUUCUGCAGUAAACAUAGAAGCAUUUGUAGAGAGC	3.82
GGAAGUACAAUGAUGGAGAUUGAUGGUGACAAAGGCAAGCAGGGCGGGCCCACCUACUACACCGACACCAAUGCCCUCCGCGUGCCCAGGGAGAACAUGGAGGCCAUCUCACCACUCAAG	0.18
AACAUAAAUUGUAUUUCCUGUUUUAAUUCCAGGGGAAGUACUGUUUGGGAAAGCUAUUAUCCGGUAAAUGUUUUACAAAUUACUGUUUCUCACUUUCAGUCAUACCCUAAUGAUCCCAGC	0.335
AUUUAGAAUGUUAAUAAAUUGCUCUGAGUUUCCUCAAGUCCAUUUUGUAAGAUCAGACCACCGGUGGGUGUUGUUUCUUUUAAGUGUGUGUACUGUGUCCAAUGUUACAUUUUUAGAAGU	17.6
GGCAAGGUUCGGCUCCUGGCUGAUCCCACUGGGGCCUUUGGGAAGGAGACAGACUUAUUACCCGAUGAUUCGCUGGUGUCCAUCUUUGGGAAUCGACGUCUCAAGAGGUUCUCCAUGGUG	0.0645
UACUUGGCAUAUCGAAAUUUUAUGAUUGACACGUAUCGUCUAAACCCCCAAGAGUAUUUAACCCGCACUGCUUGUCGGAGGAACUUGACUGGAGAUGUGUGUGCUGUGAUGAGGGUCCAU	0.34
UACCUUAUAUUACAUCUCAUCUCCACAGUAUAUACAAGAAGAGAUGUCCUUCCACCCGGAAAAUUUACAGUUAACUUGAGUGGUUGCCCACGGAAUAGUACCUUCACAGAACACUUGUAU	0.545

Single results of other studies
P1: viral docking peptide; PTARRRLLHDLDT; partner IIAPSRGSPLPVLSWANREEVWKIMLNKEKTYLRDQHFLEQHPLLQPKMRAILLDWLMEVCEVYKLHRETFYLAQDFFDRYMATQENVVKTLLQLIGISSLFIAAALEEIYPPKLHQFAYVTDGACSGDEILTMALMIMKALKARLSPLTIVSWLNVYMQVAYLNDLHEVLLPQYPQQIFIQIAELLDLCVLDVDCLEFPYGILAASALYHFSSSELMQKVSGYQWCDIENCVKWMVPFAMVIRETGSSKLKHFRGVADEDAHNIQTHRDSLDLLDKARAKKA
P2: PafA, mature enzyme, eGFP fusion (Elizabethkingia meningoseptica, UniProt Q9KJX5); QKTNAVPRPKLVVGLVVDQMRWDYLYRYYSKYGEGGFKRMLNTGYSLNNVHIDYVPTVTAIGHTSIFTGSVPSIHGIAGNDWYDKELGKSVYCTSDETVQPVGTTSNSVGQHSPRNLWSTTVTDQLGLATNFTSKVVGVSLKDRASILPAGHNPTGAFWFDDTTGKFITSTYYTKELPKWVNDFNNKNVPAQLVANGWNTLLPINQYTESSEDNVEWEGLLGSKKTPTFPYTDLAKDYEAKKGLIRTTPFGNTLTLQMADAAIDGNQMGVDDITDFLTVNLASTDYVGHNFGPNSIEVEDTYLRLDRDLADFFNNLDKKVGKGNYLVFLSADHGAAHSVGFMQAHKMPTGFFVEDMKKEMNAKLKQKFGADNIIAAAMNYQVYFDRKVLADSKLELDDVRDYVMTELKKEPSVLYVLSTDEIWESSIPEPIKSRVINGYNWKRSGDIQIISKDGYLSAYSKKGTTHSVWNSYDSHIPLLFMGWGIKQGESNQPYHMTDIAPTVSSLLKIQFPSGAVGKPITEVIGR
B1: ARF11 500-622 (Arabidopsis thaliana, UniProt Q9ZPY6); chain SPKEQKQQTSTRSRIKVQMQGTAVGRAVDLTLLRSYDELIKELEKMFEIEGELSPKDKWAIVFTDDEGDRMLVGDDPWNEFCKMAKKLFIYPSDEVKKMRSKSLLGDKGTIVNLESDQRTVHV
Substance	tested on	test	test system	setting	how to read	quantity	value
P1 T2A	CCNE1, cyclin fold, Cln2 fusion (human)	yeast growth competition, sequencing	yeast	strong parent motif	reference: not given, higher = stronger binding	normalised enrichment score	0.438
P2 D162G	vanadate, free oxyanion	microfluidic competitive inhibition	in vitro, cell-free expressed	not given, derived from inhibition constants, unchanged parent 676 nM	lower = stronger binding	oxyanion analog dissociation constant	2.76 µM
B1 (ARF11 500-622)	ARF17 (Arabidopsis thaliana, UniProt Q84WU6)	two-hybrid		weak activation fusion	reference: out of 2 tests, higher = firmer interaction	positive tests	0

A few entries again (block 1):
Sequence	median fluorescence
GCCGAAAGTTGCCTCCTGGCAACTTTCGGC	566 a.u.
GTCGGAAGCGGCCTCCTGGCCGCTTCCGAC (5mC at 28)	2200 a.u.
